Measurements from different studies.
Numbered parts are unrelated; each lists some results of a single study.

Series 1 — technique: universal PBM; form: double-stranded DNA, one strand shown; sample: in vitro; concentration: 600 nM; reading: higher = stronger binding; endpoint: E-score
Target: Sal-like protein 4, full length isoform A (SALL4, Homo sapiens, UniProt Q9UJQ4, residues 1-1053)
Chain of UniProt Q9UJQ4 (whole entry, looked up): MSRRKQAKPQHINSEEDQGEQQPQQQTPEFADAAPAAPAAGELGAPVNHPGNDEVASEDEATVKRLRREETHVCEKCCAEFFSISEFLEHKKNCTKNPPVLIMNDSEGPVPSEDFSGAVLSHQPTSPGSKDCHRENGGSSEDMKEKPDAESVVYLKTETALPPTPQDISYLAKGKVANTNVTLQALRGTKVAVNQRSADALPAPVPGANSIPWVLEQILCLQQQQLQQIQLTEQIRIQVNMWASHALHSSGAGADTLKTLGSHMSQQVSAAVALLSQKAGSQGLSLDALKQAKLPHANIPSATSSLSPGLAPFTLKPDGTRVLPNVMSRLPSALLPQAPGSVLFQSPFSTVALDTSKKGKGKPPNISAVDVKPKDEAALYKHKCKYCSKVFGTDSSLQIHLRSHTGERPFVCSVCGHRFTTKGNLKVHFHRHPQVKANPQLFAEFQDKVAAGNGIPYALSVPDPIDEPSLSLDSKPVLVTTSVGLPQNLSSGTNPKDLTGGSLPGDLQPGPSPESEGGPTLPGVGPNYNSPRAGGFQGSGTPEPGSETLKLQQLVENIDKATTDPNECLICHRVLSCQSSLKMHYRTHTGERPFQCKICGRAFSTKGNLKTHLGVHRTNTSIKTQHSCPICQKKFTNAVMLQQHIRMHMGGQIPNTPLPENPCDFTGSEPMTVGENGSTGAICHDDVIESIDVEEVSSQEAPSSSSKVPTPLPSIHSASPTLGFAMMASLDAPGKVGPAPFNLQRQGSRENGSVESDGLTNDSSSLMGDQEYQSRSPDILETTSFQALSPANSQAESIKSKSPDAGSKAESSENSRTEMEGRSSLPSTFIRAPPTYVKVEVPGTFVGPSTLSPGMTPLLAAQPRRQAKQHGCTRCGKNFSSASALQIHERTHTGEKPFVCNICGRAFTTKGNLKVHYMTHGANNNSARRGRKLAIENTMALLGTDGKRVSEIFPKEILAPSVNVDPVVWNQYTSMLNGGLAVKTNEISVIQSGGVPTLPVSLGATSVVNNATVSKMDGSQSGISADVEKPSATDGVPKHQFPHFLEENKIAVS
Setting: 8-mer, flanks averaged, mean of replicates
Sequence = ACGACTCA; result = -0.0425
Sequence = AGAGATCC; result = -0.0409
Sequence = CTGTTGCA; result = -0.0733
Sequence = CAGACACG; result = -0.263
Sequence = GCAAGCGA; result = -0.0522
Sequence = CTGCCCGC; result = -0.283
Sequence = CCAGTAGG; result = -0.226

Series 2 — technique: protein binding microarray; form: double-stranded DNA, one strand shown; sample: in vitro; concentration: not given; baseline: not given; reading: higher = stronger binding; endpoint: E-score
Target: Histone acetyltransferase KAT6A, winged helix 2, GST fusion (KAT6A, Homo sapiens, UniProt Q92794, residues 85-181)
Setting: 8-mer, flanks averaged, mean of 2 arrays, mostly near background
Construct (chain): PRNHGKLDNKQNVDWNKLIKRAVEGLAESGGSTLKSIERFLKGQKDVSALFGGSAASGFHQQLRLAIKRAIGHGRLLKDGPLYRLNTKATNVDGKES
Sequence = CTATTGGC; result = -0.0373
Sequence = AACGGCCT; result = -0.0165
Sequence = GGGCGGGA; result = 0.163
Sequence = CGACAGGA; result = 0.108
Sequence = CCGACTTC; result = -0.0777
Sequence = AAGCCTTC; result = -0.247
Sequence = AGTGGCCA; result = -0.0959
Sequence = AGGGGGAA; result = -0.0351
Sequence = ATGGGCGC; result = 0.0166

Mixed results
Substance = FAM98A (Homo sapiens, UniProt Q8NCA5); tested on = RTRAF (Homo sapiens, UniProt Q9Y224); test = cross-linking MS; setting = hits only; endpoint = interaction screen; result = cross-linked
Substance = PhoQ, residues 284 288 289 292 302 303 SASVAL; tested on = PhoP, residues 12 14 15 18 19 GHCSL (Escherichia coli, UniProt P23836); test = Sort-seq, item: YFP reporter; test system = E. coli; setting = PhoQ-PhoP variant library, together with: 10 µM Mg2+; how to read = baseline: high Mg2+ state, higher = stronger signaling; endpoint = fold induction; result = 13

Some of these lines once more (series 2):
Sequence = GGGCGGGA; result = 0.163
Sequence = CGACAGGA; result = 0.108
Sequence = CCGACTTC; result = -0.0777
